Measurements of several laboratories.
Numbered parts are unrelated; each lists some results of a single study. Values joined by “and” are separate records of one study, mostly repeats; a detail may differ.

Study 1
Organism: Sarcocystis neurona
Read-out: parasite growth
Concentration: 10 µM
Time: 96 h
Setting: second screen
Relative to: untreated
SMILES	log2 fold change
Cc1ncc([N+](=O)[O-])n1CC(C)O (centres unmarked)	0.3
CN1CCN(CCCN2c3ccccc3Sc3ccc(C(F)(F)F)cc32)CC1	0.24
CO[C@H]1/C=C/O[C@@]2(C)Oc3c(C)c(O)c4c(O)c(c5c(nc6cc(C)ccn65)c4c3C2=O)NC(=O)/C(C)=C\C=C\[C@H](C)[C@H](O)[C@@H](C)[C@@H](O)[C@@H](C)[C@H](OC(C)=O)[C@@H]1C	0.51
COc1cccc2c1C(=O)c1c(O)c3c(c(O)c1C2=O)C[C@@](O)(C(C)=O)C[C@@H]3O[C@H]1C[C@H](N)[C@H](O)[C@H](C)O1	-4.52
COCCCC/C(=N\OCCN)c1ccc(C(F)(F)F)cc1	0.29
COc1cc(CNC(=O)CCCC/C=C\C(C)C)ccc1O	0.72
CCOc1cc(CC(=O)N[C@@H](CC(C)C)c2ccccc2N2CCCCC2)ccc1C(=O)O	0.52
CCC1=C(C)CN(C(=O)NCCc2ccc(S(=O)(=O)NC(=O)N[C@H]3CC[C@H](C)CC3)cc2)C1=O	0.71

Study 2
Cell line: mouse MPNST tumor cells
Method: high-content immunofluorescence imaging
Measured: nuclear SOX9
Concentration: 10 µM
Time: 12 h
Setting: mean of 2 replicates
Relative to: DMSO control
Direction: higher = more nuclear SOX9
SMILES	nuclear SOX9 intensity
O=C(Cc1ccccc1)Nc1nc2ccc(Cl)cc2c2nc(-c3ccco3)nn12	104 % of DMSO
COC(=O)[C@@H]1[C@H]2C[C@H]3c4[nH]c5ccccc5c4CCN3C[C@@H]2CC[C@@H]1O	91 % of DMSO
CC1(C)N=C(N)N=C(N)N1c1ccc(Cl)cc1	120 % of DMSO
COCCN(C(=O)c1cc(OC)c(OC)c(OC)c1)c1nc(-c2ccccc2)cs1	104 % of DMSO
NS(=O)(=O)c1ccc(NC(=O)Nc2ccc(F)cc2)cc1	105 % of DMSO
COc1c(C)cc(NC(=O)c2nn(Cc3ccc(F)cc3)c3c2CN(C(=O)c2ccc[nH]2)C[C@]3(C)C(N)=O)cc1C	107 % of DMSO
Cc1cc(C)nc(SCC(=O)Nc2ncc(Cc3cccc4ccccc34)s2)n1	118 % of DMSO
COc1c(C)c2c(c(O)c1C/C=C(\C)CCC(=O)OCCN1CCOCC1)C(=O)OC2	98.3 % of DMSO
Cc1cc(=O)n(C)c2cc(N3C(=O)CC[C@H](NS(=O)(=O)CC(C)C)[C@H]3c3ccc(Cl)cc3)ccc12	94.7 % of DMSO and 121 % of DMSO

Study 3
Structure (SMILES): CC(C)(C(=O)O)[C@H](NC(=O)Cc1cccc(I)c1)c1ccc2oc(=O)[nH]c2c1
Method: Incucyte 3D growth
Concentration: 30 µM
Direction: higher = more growth
cell line	time	spheroid area
IPC-298	228 h	3.48e+07 a.u. and 2.77e+07 a.u. and 2.62e+07 a.u. and 2.58e+07 a.u. and 3.96e+07 a.u. and 3.07e+07 a.u.
MEL-JUSO	0.52 h	1.82e+07 a.u. and 1.4e+07 a.u. and 1.44e+07 a.u. and 1.54e+07 a.u. and 1.77e+07 a.u. and 1.98e+07 a.u.
KP-4	174 h	3.46e+07 a.u. and 2.42e+07 a.u. and 2.41e+07 a.u. and 3.09e+07 a.u. and 2.5e+07 a.u. and 1.77e+07 a.u.
MEL-JUSO	282.52 h	2.24e+07 a.u. and 2.39e+07 a.u. and 2.38e+07 a.u. and 3.64e+07 a.u. and 1.81e+07 a.u.
KP-4	96 h	1.88e+07 a.u. and 1.79e+07 a.u. and 1.71e+07 a.u. and 1.83e+07 a.u. and 1.49e+07 a.u. and 1.42e+07 a.u.
A375	222.52 h	1.72e+08 a.u. and 1.64e+08 a.u. and 1.5e+08 a.u. and 1.6e+08 a.u. and 1.54e+08 a.u. and 1.8e+08 a.u.
IPC-298	36 h	2.68e+07 a.u. and 2.11e+07 a.u. and 1.08e+07 a.u. and 2.49e+07 a.u. and 2.61e+07 a.u. and 1.84e+07 a.u.
A375	402.52 h	1.65e+08 a.u. and 1.72e+08 a.u. and 1.61e+08 a.u. and 1.77e+08 a.u. and 1.86e+08 a.u. and 1.55e+08 a.u.

Further values, each from its own experiment
SMILES	cell line	time	measurement	result
CN(C)CC#Cc1ccc(OCCCc2sc(N3CCc4cccc(C(=O)Nc5nc6ccccc6s5)c4C3)nc2C(=O)O)c(F)c1	colorectal cancer organoids	4 days	IC50	20 to 110 nM

Repeated from above (study 2):
SMILES	nuclear SOX9 intensity
O=C(Cc1ccccc1)Nc1nc2ccc(Cl)cc2c2nc(-c3ccco3)nn12	104 % of DMSO
COC(=O)[C@@H]1[C@H]2C[C@H]3c4[nH]c5ccccc5c4CCN3C[C@@H]2CC[C@@H]1O	91 % of DMSO
